Literature values that unrelated publications cite.
Protocols differ between the studies behind these lines.

COc1cc2nccc(Oc3ccc(NC(=O)C4(C(=O)Nc5ccc(F)cc5)CC4)cc3)c2cc1OC
patients requiring dose hold (cancer patients, real-world): ≤ 83%

COc1ccc(CN2C3CC2CN(c2ccc(-c4cc(OCC(C)(C)O)cn5ncc(C#N)c45)cn2)C3)cn1
patients with dose reduction (RET-positive thyroid cancer patients; dose not given): 30%

COc1cc(C(=O)O)ccc1NC(=O)[C@@H]1N[C@@H](CC(C)(C)C)[C@](C#N)(c2ccc(Cl)cc2F)[C@H]1c1cccc(Cl)c1F
patients with related neutropenia (patients with solid tumours or lymphomas; dose not given, grade ≥3, first-in-human trials): 21%

CNC(=O)c1ccc(Nc2ncc(C(F)(F)F)c(NCc3nccnc3N(C)S(C)(=O)=O)n2)cc1
patients with related adverse events (patients with KRAS mutant NSCLC; dose not given; baseline: patients): 76%

COc1c(OCCCN2CCOCC2)ccc2c1N=C(NC(=O)c1cnc(N)nc1)N1CCN=C21
patients with dose interruption (relapsed indolent NHL patients; dose not given, with: rituximab): 75.2%

CCN1[C@@H](C(=O)NC23CCC(C(=O)O)(CC2)CC3)[C@H](c2cccc(Cl)c2F)[C@]2(C(=O)Nc3cc(Cl)ccc32)C12CCCCC2
patients with related neutropenia (patients with solid tumours or lymphomas; dose not given, grade ≥3, first-in-human trials): 10%

Nc1ccn([C@@H]2O[C@H](CO)[C@@H](O)C2(F)F)c(=O)n1
patients with dose reduction (pancreatic cancer patients; dose not given): 25%

CO[C@@H](C)Cn1c(=O)n(C)c2cnc3ccc(-c4cncc(C(C)(C)O)c4)cc3c21
patients with related adverse event (measured: fatigue; cancer patients; dose not given, monotherapy): 36.5%

CC1(C)CCC2(CC1)N[C@@H](C(=O)N[C@@H]1CC[C@@H](C(N)=O)OC1)[C@H](c1ccnc(Cl)c1F)[C@]21C(=O)Nc2cc(Cl)ccc21
patients with related neutropenia (patients with solid tumours or lymphomas; dose not given, grade ≥3, first-in-human trials): 12%

Excerpt of the above:
COc1cc(C(=O)O)ccc1NC(=O)[C@@H]1N[C@@H](CC(C)(C)C)[C@](C#N)(c2ccc(Cl)cc2F)[C@H]1c1cccc(Cl)c1F
patients with related neutropenia (patients with solid tumours or lymphomas; dose not given, grade ≥3, first-in-human trials): 21%
